{"data": "Experimental data of several laboratories", "note": "Numbered parts are unrelated; each lists some results of a single study. Positions count from the first letter of the parent shown."}
{"data": "Sample 1", "target": "Histone acetyltransferase KAT6A, winged helix 2, GST fusion (KAT6A, Homo sapiens, UniProt Q92794, residues 85-181)", "method": "protein binding microarray", "molecule type": "double-stranded DNA, one strand shown", "sample": "in vitro", "tested at": "not given", "setting": "8-mer, flanks averaged, mean of 2 arrays, mostly near background", "baseline": "not given", "direction": "higher = stronger binding", "Construct (chain)": "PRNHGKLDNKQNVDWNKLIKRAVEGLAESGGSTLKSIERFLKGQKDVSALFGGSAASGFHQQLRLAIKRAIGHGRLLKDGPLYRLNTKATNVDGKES"}
{"Oligonucleotide": "AGCAGCTC", "E-score": -0.0504}
{"Oligonucleotide": "TTGGGAAA", "E-score": 0.169}
{"Oligonucleotide": "TGACCACA", "E-score": -0.0522}
{"Oligonucleotide": "AACATAGC", "E-score": -0.0164}
{"Oligonucleotide": "CATAGAAG", "E-score": 0.0651}
{"Oligonucleotide": "GCGGCCCC", "E-score": 0.162}
{"Oligonucleotide": "TCTACAAA", "E-score": -0.169}
{"Oligonucleotide": "CATGTTAC", "E-score": -0.0208}
{"Oligonucleotide": "CCATCACG", "E-score": -0.0473}
{"Oligonucleotide": "CTTACGCC", "E-score": 0.156}
{"Oligonucleotide": "TAGGTGCA", "E-score": -0.122}
{"Oligonucleotide": "GTCCGTCA", "E-score": -0.0637}
{"Oligonucleotide": "ACACCGTG", "E-score": -0.102}
{"data": "Sample 2", "target": "CREM, bZIP domain (human)", "method": "DHFR protein complementation", "sample": "yeast", "setting": "single substitutions, most at no-binding floor", "baseline": "wild-type JUN-FOS pair", "direction": "higher = stronger binding", "parent": "JUN, bZIP domain (human); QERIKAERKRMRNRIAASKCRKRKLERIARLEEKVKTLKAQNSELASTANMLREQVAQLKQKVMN; partner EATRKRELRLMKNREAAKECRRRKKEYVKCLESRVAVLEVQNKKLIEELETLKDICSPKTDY"}
{"Change": "L31C", "binding fitness": "-1.57 natural log"}
{"Change": "L52P", "binding fitness": "-1.49 natural log"}
{"Change": "E44A", "binding fitness": "-1.26 natural log"}
{"Change": "L59P", "binding fitness": "-1.36 natural log"}
{"Change": "E54S", "binding fitness": "-1.22 natural log"}
{"Change": "A40E", "binding fitness": "-1.42 natural log"}
{"Change": "K39W", "binding fitness": "-1.55 natural log"}
{"Change": "K34P", "binding fitness": "-1.48 natural log"}
{"Change": "K36G", "binding fitness": "-1.52 natural log"}
{"Change": "N42R", "binding fitness": "-1.45 natural log"}
{"Change": "A46N", "binding fitness": "-1.38 natural log"}
{"Change": "R30E", "binding fitness": "-1.28 natural log"}
{"Change": "E54R", "binding fitness": "-1.34 natural log"}
{"Change": "R53G", "binding fitness": "-1.41 natural log"}
{"Change": "E44T", "binding fitness": "-1.48 natural log"}
{"Change": "L52M", "binding fitness": "-1.47 natural log"}
{"Change": "S43D", "binding fitness": "-1.37 natural log"}
{"Change": "K36V", "binding fitness": "-1.46 natural log"}
{"Change": "E54V", "binding fitness": "-1.46 natural log"}
{"data": "Sample 3", "target": "RNA binding protein fox-1 homolog 2, RRM domain, GST-SBP tag (RBFOX2, Homo sapiens, UniProt O43251-10, residues 100-194)", "method": "RNA Bind-n-Seq", "molecule type": "RNA", "sample": "in vitro", "tested at": "365 nM", "setting": "natural RNA segment, single round, ends assumed", "baseline": "no-protein control", "direction": "higher = stronger binding", "constant ends, left off below": "GGGAGUUCUACAGUCCGACGAUC … UGGAAUUCUCGGGUGCCAA", "Target sequence (chain)": "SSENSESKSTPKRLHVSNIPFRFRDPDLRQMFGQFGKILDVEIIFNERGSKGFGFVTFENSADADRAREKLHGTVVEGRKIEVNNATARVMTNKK"}
{"Oligonucleotide": "UCUUCAGUGUUUUGCUUGUUCACUGUCAUCAGAGCAGGGAUUAGACCUGUUAGGGAAUAUCUAUUGUCUUGAAGUCAGAGUAGCUCCCCAUUGUUGAGAUCAGUGGGCAU", "RBNS enrichment (R)": 0.378}
{"Oligonucleotide": "AUCCAUUCGAAAUCUGUAUCCCAUUUGAUCCUUAUGUAAGUCUCAUGAGUAAACAGAACAGAAUUUUUUUUUCUUGUGUGCAUGAAAGAAUUUGCAGAUCGCAGAGGACA", "RBNS enrichment (R)": 1.68}
{"Oligonucleotide": "UCCAAAAGAUUUGCCAAAUAACAAGCGCACAUAGUGUGCACUGUUGGAGACUGAAAAUGCCUACUGUAUUGAUGUCUUUAUUCUUUGGUGAAUCAAAAGUUUUAAAAGUA", "RBNS enrichment (R)": 0.31}
{"Oligonucleotide": "UAACAAAGCAUUAAUAAUUCUAAGGAUAAUCUCUAUUUUGUUGUGCUUUUUUGUAACUGUUUUAAAUAAAUCAAUUUGUACUGUAUAUUUGUACUUUUGUGAGAUCCUUU", "RBNS enrichment (R)": 0.73}
{"Oligonucleotide": "GUCUAUAAACUAGCUUUAGGAUAGUGCCAGACAAACAUAUGAUAUCAUGGUGUAAAAAACACACACAUACACAAAUAUUUGUAACAUAUUGUGACCAAAUGGGCCUCAAA", "RBNS enrichment (R)": 0.232}
{"Oligonucleotide": "CCUGCACACUGGCUUUUUUAGUCAUUUAUGGGCAAAAAGAGUUAAAGUAAAACUUUGCAAAUCCCGACCUGCCAGCGUUUCUCUGGGGAUCACGGUGUGUGUGUGCGUGC", "RBNS enrichment (R)": 0.518}
{"Oligonucleotide": "AGUGGCACAAUCUCGGCUCACUGCAGCCUCCGCCUGCCGGGUCAAGCGAUUCUCCUACCUCAGCCUCCUCAGUAGCUGAGAUUACAGGCAUGCACCACCAUGCCCGGCUA", "RBNS enrichment (R)": 0.333}
{"Oligonucleotide": "CUGCAACCAUUAUCUUUGUUCUUGAGUUCAUCAUGCAUUUAAAAUGAGAUGCAAGAGCAUUUAGCAUACCAUGUAAAUAUGGACCUUUUAAAAUUAAAAUACUAUUGGAA", "RBNS enrichment (R)": 0.627}
{"Oligonucleotide": "CAUUGGUCUCUGGAAUAAGUGCCAGCCUUUUUGCCAUAGUUGACUUGCUUCCAUAUUGGAGCUCCUCAGUAGGAACAGCUGUGGCACUGGGCUGGGGACCAGGAAGAAGU", "RBNS enrichment (R)": 0.991}
{"Oligonucleotide": "GGGAGGGGUUGGUUUUUCACUGAACAGGGGAUAUGCCUAUGUCUUCAUCAGUGUUGAAACAUUCACCAUGUGCUGGACGUAGGUUUUCAAUAAACACAGAUUGGUACCAC", "RBNS enrichment (R)": 0.268}
{"Oligonucleotide": "GUGGGCCACACUCUGGCUUUGUGGCUGCUGACAGGGCUUAGCUACACGAACAGCCUGAGAAGUCACUUUGGAACUAAAUUGCCUCGAUUUAUUUUGUGUAAGUAAGGGUU", "RBNS enrichment (R)": 0.483}
{"Oligonucleotide": "GCUGCUUUCACGGCUGUUGUUCAGUGCCUGCGGCUUUUCCAGGUGCACGGUGCAAGCUGUUGGUGGAUCUACCAUUCUGGGGUCUGGAGGACGGUGGCCCUCUUCUCACA", "RBNS enrichment (R)": 0.406}
{"data": "Further values, each from its own experiment"}
{"Substance": "PSSMRKICTYFHR", "target or system": "Saccharomyces cerevisiae", "test": "peptide binding, yeast competitive growth sequencing", "test system": "peptide, cyclin E2-Cln2 fusion", "conditions": "library 2", "how to read": "direction not given", "endpoint": "enrichment score", "value": -1.13}
{"Substance": "PhoQ, residues 284 288 289 292 302 303 GASLAW", "target or system": "PhoP, residues 12 14 15 18 19 MHTVL (Escherichia coli, UniProt P23836)", "test": "Sort-seq, measured: YFP reporter", "test system": "E. coli", "conditions": "PhoQ-PhoP variant library, with: 10 µM Mg2+", "how to read": "baseline: high Mg2+ state, higher = stronger signaling", "endpoint": "fold induction", "value": 10.1}
{"Substance": "ASPLKKLFTSTGL", "target or system": "Cln2 (Saccharomyces cerevisiae)", "test": "peptide binding, competitive growth sequencing", "test system": "peptide, Saccharomyces cerevisiae, unfused Cln2 strain", "conditions": "mutational scanning library 1", "how to read": "direction not given", "endpoint": "enrichment score", "value": -0.953}
{"note": "A few entries again (further values, each from its own experiment):"}
{"Substance": "ASPLKKLFTSTGL", "target or system": "Cln2 (Saccharomyces cerevisiae)", "test": "peptide binding, competitive growth sequencing", "test system": "peptide, Saccharomyces cerevisiae, unfused Cln2 strain", "conditions": "mutational scanning library 1", "how to read": "direction not given", "endpoint": "enrichment score", "value": -0.953}
{"Substance": "PSSMRKICTYFHR", "target or system": "Saccharomyces cerevisiae", "test": "peptide binding, yeast competitive growth sequencing", "test system": "peptide, cyclin E2-Cln2 fusion", "conditions": "library 2", "how to read": "direction not given", "endpoint": "enrichment score", "value": -1.13}
{"Substance": "PhoQ, residues 284 288 289 292 302 303 GASLAW", "target or system": "PhoP, residues 12 14 15 18 19 MHTVL (Escherichia coli, UniProt P23836)", "test": "Sort-seq, measured: YFP reporter", "test system": "E. coli", "conditions": "PhoQ-PhoP variant library, with: 10 µM Mg2+", "how to read": "baseline: high Mg2+ state, higher = stronger signaling", "endpoint": "fold induction", "value": 10.1}
